Assay results from different studies.
Every numbered part comes from another study and shows a few of its results, in no order. Positions count from the first letter of the parent shown.

Set 1
Target: Histone acetyltransferase KAT6A, both winged helices, GST fusion (KAT6A, Homo sapiens, UniProt Q92794, residues 1-181)
Technique: protein binding microarray
Form: double-stranded DNA, one strand shown
Matrix: in vitro
Tested at: not given
Setting: 8-mer, flanks averaged, mean of 2 arrays, mostly near background
Baseline: not given
Direction: higher = stronger binding
Quantity: E-score
Construct (chain): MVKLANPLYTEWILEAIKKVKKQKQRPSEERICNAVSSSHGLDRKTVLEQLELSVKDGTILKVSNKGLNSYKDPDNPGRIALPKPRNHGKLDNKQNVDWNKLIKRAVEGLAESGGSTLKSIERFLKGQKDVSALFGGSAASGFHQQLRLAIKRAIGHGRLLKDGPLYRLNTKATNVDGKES
Strand = TCCTGCCA; value = -0.164
Strand = AGAGCGAT; value = -0.128
Strand = ACGGCTAC; value = 0.276
Strand = CTAGTTCC; value = -0.014
Strand = CAGGTCCC; value = 0.0469
Strand = CTGCCCTC; value = -0.162
Strand = TCCAAGCA; value = -0.0631
Strand = CAGATTCG; value = -0.0728
Strand = ATCATCAA; value = -0.0315
Strand = ACCCTTGC; value = -0.0423
Strand = AAGGCAAG; value = -0.281
Strand = ACCCGCGT; value = 0.296
Strand = AAACCAGT; value = -0.0425
Strand = AAAACCTC; value = 0.0112
Strand = CCAGTGAG; value = -0.15
Strand = CGTAACAA; value = -0.0308
Strand = CACGAGTC; value = -0.0601
Strand = AAAGGGGG; value = -0.25
Strand = TAAGGGCA; value = -0.109
Strand = GAAGTCGC; value = 0.169
Strand = CACGATAG; value = -0.0753
Strand = CAGCTGAG; value = -0.203
Strand = GACCCCGC; value = 0.293

Set 2
Target: Interferon regulatory factor 5, full length, phosphomimetic (IRF5, Homo sapiens, UniProt Q13568-2, residues 1-514, S451D/S453D/S456D/S462D)
Technique: protein-binding microarray
Form: double-stranded DNA, one strand shown
Matrix: in vitro
Tested at: 940 nM top
Setting: 60-bp whole probe
Together with: salmon DNA 0.4 mg/ml
Baseline: random background probes
Direction: higher = stronger binding
Quantity: fitted relative affinity
Shared flanks, not repeated: GCCTAGCAC … GTCTTGATTCGCTTGACGCTGCTG
Strand = TTAGGACTGGACTTTCGGTAAGTGCTA; value = 1.7 z-score
Strand = TCAGTTTCCTCTTTCTTACTGTGCTAG; value = 3.02 z-score
Strand = TTAGGTTTCCATTCCCTTTAGTGCTAG; value = 2.4 z-score
Strand = TTAGGACTGAGGTTTCGGTTAGTGCTA; value = 5.15 z-score
Strand = ACCCATCTCAAGTAGCCTAGCGTGCTA; value = 0.3 z-score
Strand = TTTGCTCTGTGCATAGTTCTGTGCTAG; value = -0.331 z-score
Strand = TTAGGACTGCCTCTCCTTTAGTGCTAG; value = -0.265 z-score
Strand = TATGTTCCTTTAGCACTTTGGTGCTAG; value = -0.0394 z-score
Strand = AACGGTATCGACACTGGGGACGTGCTA; value = 4.45 z-score
Strand = GACTGACTGGGTCTCGGGACGTGCTAG; value = -0.0789 z-score
Strand = GATGGTCTCCTTCTCCTGACGTGCTAG; value = 0.47 z-score
Strand = TCATCGATTTCTCTTTCCACTGTGCTA; value = 1.38 z-score
Strand = TTAGGACTGGGTCACGGTTAGTGCTAG; value = -0.473 z-score
Strand = TTAGGTTTCGGTTCCGATTAGTGCTAG; value = 15 z-score
Strand = TTAGAACTGGGGACTGGACTAGTGCTA; value = -0.283 z-score
Strand = TTTGATATCGGGACTGGATTAGTGCTA; value = 0.201 z-score

Set 3
Target: ABI1, truncated, D143A, DHFR fusion (Arabidopsis thaliana)
Technique: DHFR PCA, deep sequencing
Matrix: yeast
Setting: methotrexate growth selection, single substitutions
Together with: (+)-ABA 0 µM
Baseline: wild-type fitted maximum
Direction: higher = stronger binding
Quantity: relative binding score
Starting sequence: PYL1, truncated, DHFR fusion (Arabidopsis thaliana); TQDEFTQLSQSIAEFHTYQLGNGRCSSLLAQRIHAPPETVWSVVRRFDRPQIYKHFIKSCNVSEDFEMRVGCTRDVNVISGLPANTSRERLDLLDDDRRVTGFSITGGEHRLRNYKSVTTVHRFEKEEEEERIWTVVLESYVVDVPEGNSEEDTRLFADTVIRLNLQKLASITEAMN
Variant = Q10S; value = 37.5%
Variant = E131M; value = 35.4%
Variant = R155T; value = 5.97%
Variant = T160Y; value = 16.7%
Variant = E127N; value = 27.7%
Variant = V40P; value = -0.553%
Variant = H122M; value = -1.34%
Variant = R24P; value = -5.71%
Variant = Y18H; value = 42.1%
Variant = C72Y; value = 1.21%
Variant = S9D; value = 9.55%
Variant = Y115V; value = 4.7%
Variant = K54D; value = 0.168%
Variant = T106C; value = 8.2%
Variant = L166F; value = -5.08%
Variant = R113P; value = 69.4%
Variant = S9R; value = 51.9%
Variant = P50S; value = 0.0139%
Variant = Y53W; value = 47.8%
Variant = V43W; value = -2.16%

Set 4
Target: CREM, bZIP domain (human)
Technique: DHFR protein complementation
Matrix: yeast
Setting: single substitutions, most at no-binding floor
Baseline: wild-type JUN-FOS pair
Direction: higher = stronger binding
Quantity: binding fitness
Starting sequence: JUN, bZIP domain (human); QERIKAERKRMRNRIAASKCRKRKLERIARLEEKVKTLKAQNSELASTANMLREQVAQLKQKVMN; partner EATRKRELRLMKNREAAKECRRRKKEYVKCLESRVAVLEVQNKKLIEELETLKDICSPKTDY
Variant = A29V; value = -1.52 natural log
Variant = S43Q; value = -1.43 natural log
Variant = S43F; value = -1.4 natural log
Variant = N42E; value = -1.42 natural log
Variant = A57T; value = -1.59 natural log
Variant = L38H; value = -1.44 natural log
Variant = K36C; value = -1.23 natural log
Variant = K39Q; value = -1.39 natural log
Variant = A46L; value = -1.31 natural log
Variant = R30C; value = -1.34 natural log
Variant = S47R; value = -1.4 natural log
Variant = A29T; value = -1.49 natural log
Variant = L31P; value = -1.51 natural log
Variant = T48L; value = -1.44 natural log
Variant = A46S; value = -1.42 natural log
Variant = V35F; value = -1.42 natural log

Set 5
Target: Centromere-binding protein 1, full length, N-terminal tag (CBF1, Saccharomyces cerevisiae, UniProt P17106, residues 1-351)
Sequence of UniProt P17106 (whole entry, looked up): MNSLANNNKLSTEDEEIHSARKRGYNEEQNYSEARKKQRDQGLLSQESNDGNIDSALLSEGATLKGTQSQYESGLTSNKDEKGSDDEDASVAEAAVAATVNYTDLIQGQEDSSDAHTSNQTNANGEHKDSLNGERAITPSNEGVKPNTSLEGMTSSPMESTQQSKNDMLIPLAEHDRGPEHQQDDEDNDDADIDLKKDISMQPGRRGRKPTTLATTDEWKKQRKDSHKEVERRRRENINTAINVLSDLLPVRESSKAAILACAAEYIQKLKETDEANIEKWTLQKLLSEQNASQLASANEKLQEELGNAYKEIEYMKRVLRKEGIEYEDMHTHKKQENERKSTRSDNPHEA
Technique: protein-binding microarray
Form: double-stranded DNA, one strand shown
Matrix: in vitro
Tested at: 0.8 µM
Setting: whole 60-bp probe, no competitor
Direction: higher = stronger binding
Quantity: fluorescence intensity
Strand = CTACGAGAATTTGGGCACATGTGACCCGGAATGTTCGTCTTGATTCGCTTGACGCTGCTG; value = 11000 a.u.
Strand = CTAGGGTTATACCATCACGTGATAATAAATCCATTCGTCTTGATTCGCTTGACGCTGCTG; value = 33900 a.u.
Strand = CTATTATCACCGTCTCACCATATCCCACGACTATTCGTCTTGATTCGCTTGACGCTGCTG; value = 559 a.u.
Strand = CTATATTTTTGCGTGCACGAGTAATCTAGCGAATTCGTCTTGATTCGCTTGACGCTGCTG; value = 794 a.u.
Strand = GAACTGTGATGCAGGGCCGTGACGCCCTGTTAGTAGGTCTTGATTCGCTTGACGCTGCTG; value = 588 a.u.
Strand = GAAGTGGATTACGCTCACGTGCTTTCCGCGGAATAGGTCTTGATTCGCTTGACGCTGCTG; value = 10800 a.u.
Strand = GAAAATTGGAGTTCCATCACCATCAATATAGCATAGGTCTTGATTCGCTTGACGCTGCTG; value = 517 a.u.
Strand = GAATCCTCAATTTTTGACGTCATCTTCTTACGCTAGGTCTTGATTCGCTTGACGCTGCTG; value = 519 a.u.
Strand = GAACGAAAATAGCACGTGCCTATTGATCTTAATTAGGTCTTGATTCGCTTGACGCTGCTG; value = 14600 a.u.
Strand = CTACTTAATTAACACCACCTTTGAATAATTTATTTCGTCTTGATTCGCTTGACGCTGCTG; value = 528 a.u.
Strand = CCTAACTACTATACTCACCTTATATAGCTTCGTACAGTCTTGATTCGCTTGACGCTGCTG; value = 534 a.u.
Strand = GAAGAAAAAAACATACACGTGTGTTTTTAGACTTAGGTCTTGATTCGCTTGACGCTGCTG; value = 5690 a.u.

Set 6
Target: CCNE2, cyclin fold, Cln2 fusion (human)
Technique: yeast growth competition, sequencing
Matrix: yeast
Setting: strong parent motif
Baseline: not given
Direction: higher = stronger binding
Quantity: normalised enrichment score
Starting sequence: RBL1 docking peptide (human); GSAKRRLFGEDPP; partner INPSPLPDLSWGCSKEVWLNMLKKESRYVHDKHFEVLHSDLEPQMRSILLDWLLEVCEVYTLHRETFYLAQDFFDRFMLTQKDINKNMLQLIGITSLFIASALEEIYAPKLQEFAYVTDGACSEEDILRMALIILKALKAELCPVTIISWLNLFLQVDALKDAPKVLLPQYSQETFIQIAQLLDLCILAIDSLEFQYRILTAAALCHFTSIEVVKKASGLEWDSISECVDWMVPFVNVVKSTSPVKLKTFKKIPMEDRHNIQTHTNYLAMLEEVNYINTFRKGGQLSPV
Variant = F8K; value = 0.935
Variant = S2W; value = 1.46
Variant = D11R; value = 2.33
Variant = D11W; value = 3.77
Variant = K4V; value = 4.77
Variant = G1K; value = 4.67
Variant = P13R; value = 4.26
Variant = F8C; value = 0.856
Variant = G1F; value = 5.9
Variant = A3M; value = 0.0331
Variant = F8W; value = 1.41
Variant = K4E; value = -0.274
Variant = L7S; value = 0.0526
Variant = R5F; value = 0.199
Variant = K4W; value = 0.935
Variant = E10C; value = 3.01

A few entries again (set 1):
Strand = CTGCCCTC; value = -0.162
Strand = TCCAAGCA; value = -0.0631
Strand = CAGATTCG; value = -0.0728
Strand = ATCATCAA; value = -0.0315
Strand = ACCCTTGC; value = -0.0423
Strand = AAGGCAAG; value = -0.281
Strand = ACCCGCGT; value = 0.296
Strand = AAACCAGT; value = -0.0425
Strand = AAAACCTC; value = 0.0112
Strand = CCAGTGAG; value = -0.15
Strand = CGTAACAA; value = -0.0308
Strand = CACGAGTC; value = -0.0601
Strand = AAAGGGGG; value = -0.25
Strand = TAAGGGCA; value = -0.109
